# Published values collected from several papers.
# Numbered parts are unrelated; each lists some results of a single study.

# Study 1 — technique: RNA Bind-n-Seq; form: RNA; sample: in vitro; concentration: 365 nM; reference: no-protein control; direction: higher = stronger binding
# Target: RNA binding protein fox-1 homolog 2, RRM domain, GST-SBP tag (RBFOX2, Homo sapiens, UniProt O43251-10, residues 100-194)
# Setting: natural RNA segment, single round, ends assumed
# Construct (chain): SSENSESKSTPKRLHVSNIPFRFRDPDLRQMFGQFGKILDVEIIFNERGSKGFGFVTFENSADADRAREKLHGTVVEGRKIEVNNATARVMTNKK
Strand,RBNS enrichment (R)
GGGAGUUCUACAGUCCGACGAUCAGCCUGGUCUAAAAAGGAAGUUCCAAGACUGCCAGGGCCACACAGAGGAAAAAAAAAACCCUCUAGAAAAACAAAAAUGAAGACAGGAUCUCAUGUAUCGUAGAUUGGCCUGGAAUUCUCGGGUGCCAA,0.449
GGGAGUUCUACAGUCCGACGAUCAUCAGCCAUCUUUGCAUAUCCCUUUCACAUCUACCUUCACACAGGAAAGCUGAAUGCAUUUUACCAGUGAGGCUCUAGAUAUGAAACUUAGGGAUCCAUAGAUAAAUAAGUGGAAUUCUCGGGUGCCAA,0.484
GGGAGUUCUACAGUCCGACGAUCAGACGCCAGAGCUGGCGGGGCAGGAGGACGCUGUACGGAUGCAGCAGCUGAAAAUGAAGGUAAUUAAAACCAUGGAGGCGAUCAGCGAGGUUCUCCAGGACCUUAGGUUUUGGAAUUCUCGGGUGCCAA,0.906
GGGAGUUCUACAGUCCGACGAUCGCCACCACUCCUGUCAGCAAGUGCUCAGAGCAGGUGGGAGGCACAGAUUGUCCGUGGGAGGGCUCCAGUGUCUGGGAAGAGGGCAGGCGGCCCCCAUGAAUGUCCUCGGAUGGAAUUCUCGGGUGCCAA,1.09
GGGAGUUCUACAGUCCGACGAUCCAUAGUCAUUCCAGUGGAGAGUGGAAGUAACCUCAUGGUGAUUUUUAACCCUAAUUUCUCUCUGACCCUAAAGGAGCUGCUGGCCCUAGAAGGUUGGGAUCAAUCUUGUCUGGAAUUCUCGGGUGCCAA,0.342
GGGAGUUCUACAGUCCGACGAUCCUUCAGUCUCCACCAGCCUGAAGGGCCUCCUAGGGGAUCCUCAGGCGGCCCCCACCAGGGCACACCCUACUGUCCUUGUGCCUCACGCCCCCUCCUCAUCCUGCACCCCUUGGAAUUCUCGGGUGCCAA,0.485
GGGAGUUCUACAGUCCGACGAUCCUGUCAAGCUCUGGAUCCUGACCAGGUUGUACACUGGGGCUCUCUGAGCUUUGGGACACAGGACACUGCCAGGGCUACGUAGGGAACUGACUCAGAAGACGCAGCUUACUUGGAAUUCUCGGGUGCCAA,0.319
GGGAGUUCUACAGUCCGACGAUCAGAAAUGGUCAUAAACACAAAUCAAAAUAUAGUAUUAUAGAUCAUAGAACCAAGUCACGUAACCAGGAAAAACCUGUUAAUCAUAUCCCGUUGGAAAAUAUCACAUUUGAUGGAAUUCUCGGGUGCCAA,0.579
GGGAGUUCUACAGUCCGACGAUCAAGUACAGGCCAAGUGUUGUCAAACACCUUGGCUAAAACAGUGGAGGGUGAUGGGUAAAGCAGUAGAGGGCCCUCAACCCACACACUGGCUGAAACUGCCACCAACUGCCUGGAAUUCUCGGGUGCCAA,0.353
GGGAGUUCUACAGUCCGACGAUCCUGGGCAGUGGUCUGUUCACCCUGAGUCCCACCCUUUGUUAAAUAACAAACUGCUGAUUCUUAAAAAGUGGUUCUGGCCCUCAUUAGCUCUUCCAGGUCUGCCUGCUGUAUGGAAUUCUCGGGUGCCAA,0.655
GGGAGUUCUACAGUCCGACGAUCAGUAGUUUAGCUUGUUUAUUGCAAUGCUGGCCUCAACACAACAGAAUAAAAAUGGUAGAAAGUACUCUUUGAUGUUUCUGGUAAUCAUGGACCCUUCUCCUGGGGCAUUUUGGAAUUCUCGGGUGCCAA,0.365
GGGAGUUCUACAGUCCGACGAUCCCACCACCCGAAAUGCCACGUGGUCACUGUGCACUGCCCUGUUCAUGUGCCUCUGCGGGGCAGGGCCUUCCUGGUUUUGUUCACUGCUGUACCCAGAUGCCUACAACCAUUGGAAUUCUCGGGUGCCAA,0.815

# Study 2 — technique: universal PBM; form: double-stranded DNA, one strand shown; sample: in vitro; concentration: 600 nM; direction: higher = stronger binding
# Target: Sal-like protein 4, full length isoform A (SALL4, Homo sapiens, UniProt Q9UJQ4, residues 1-1053)
# Chain of UniProt Q9UJQ4 (whole entry, looked up): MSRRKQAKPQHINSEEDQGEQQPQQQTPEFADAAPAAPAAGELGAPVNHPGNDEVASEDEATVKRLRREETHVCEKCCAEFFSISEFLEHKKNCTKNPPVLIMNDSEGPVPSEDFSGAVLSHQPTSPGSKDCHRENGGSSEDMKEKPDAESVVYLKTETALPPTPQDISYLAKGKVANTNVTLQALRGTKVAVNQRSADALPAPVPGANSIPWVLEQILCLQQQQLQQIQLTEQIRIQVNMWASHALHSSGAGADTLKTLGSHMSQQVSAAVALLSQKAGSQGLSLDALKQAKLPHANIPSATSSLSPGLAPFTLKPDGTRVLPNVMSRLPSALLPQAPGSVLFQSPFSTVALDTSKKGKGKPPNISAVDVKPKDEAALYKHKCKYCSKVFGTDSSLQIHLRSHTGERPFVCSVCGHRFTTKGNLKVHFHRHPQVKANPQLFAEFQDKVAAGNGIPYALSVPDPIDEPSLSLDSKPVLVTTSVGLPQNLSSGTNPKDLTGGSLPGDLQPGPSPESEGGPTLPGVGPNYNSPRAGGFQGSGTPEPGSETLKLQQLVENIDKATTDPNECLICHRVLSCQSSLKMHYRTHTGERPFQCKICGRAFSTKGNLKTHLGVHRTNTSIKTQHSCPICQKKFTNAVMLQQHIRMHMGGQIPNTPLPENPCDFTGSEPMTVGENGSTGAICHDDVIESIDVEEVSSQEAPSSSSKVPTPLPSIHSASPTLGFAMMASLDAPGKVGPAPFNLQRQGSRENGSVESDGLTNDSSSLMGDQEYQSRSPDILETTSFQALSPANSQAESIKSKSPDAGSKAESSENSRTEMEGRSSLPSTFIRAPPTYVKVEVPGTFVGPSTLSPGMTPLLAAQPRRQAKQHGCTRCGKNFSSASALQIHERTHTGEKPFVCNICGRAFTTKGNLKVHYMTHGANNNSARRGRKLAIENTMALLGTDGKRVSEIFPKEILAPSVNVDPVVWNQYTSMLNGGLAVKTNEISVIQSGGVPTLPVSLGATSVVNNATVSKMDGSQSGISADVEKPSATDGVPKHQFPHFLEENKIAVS
# Setting: 8-mer, flanks averaged, mean of replicates
Strand,E-score
AAGATGAC,0.132
CACAGGTA,-0.021
CCTGGGCG,-0.33
CACCAGTA,0.0311
CAGCTTGG,-0.151
CCTCGGTA,-0.243
ACTGTTAT,0.292
CGGCCGTC,-0.354
ACCTACGG,-0.363
CAGGTTCC,-0.343
ACGTACGG,-0.203
GCCTACAA,0.0125
GAGAAGAA,0.1
GCGAGGTA,-0.103
AAAACAGT,0.272
CCGTCACG,-0.262
GCAGTTGA,-0.153
AACCAGGA,-0.0899
AAACAGGC,-0.12

# Study 3 — technique: protein binding microarray; form: double-stranded DNA, one strand shown; sample: in vitro; concentration: not given; reference: not given; direction: higher = stronger binding
# Target: Histone acetyltransferase KAT6A, winged helix 2, GST fusion (KAT6A, Homo sapiens, UniProt Q92794, residues 85-181)
# Setting: 8-mer, flanks averaged, mean of 2 arrays, mostly near background
# Construct (chain): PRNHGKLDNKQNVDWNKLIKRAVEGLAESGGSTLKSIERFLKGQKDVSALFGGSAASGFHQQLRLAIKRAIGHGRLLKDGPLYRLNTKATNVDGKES
Strand,E-score
ATGGTCAC,0.123
TAACTATA,-0.127
CTCAATTC,-0.0929
ATGATCAA,-0.0327
GGGGGCTA,-0.0199
CTTTCCTC,0.117
AGTGGCAC,-0.0655
ACACGAAG,0.0144
CTAACACA,0.0579
CTGACCCC,-0.0483
AATTTTCA,-0.0663
AAACCTAG,0.0564
CGCCTATA,-0.0359
CTACCCGC,0.164
ATTCTGCA,0.0782
GTGCAAAC,0.0484
CAAGAACG,0.159
ACGCAACT,0.1
AGAGACGC,-0.0416
CGGGAGAA,0.127
AGGACTTG,-0.203
TACGGGAA,0.00957
CCGTCGTA,-0.064
GCTATACC,-0.11

# Study 4 — technique: RNA Bind-n-Seq; form: RNA; sample: in vitro; concentration: 200 nM; setting: whole 134-nt RNA, ends assumed; with: 150 mM KCl; reference: input library; direction: higher = stronger binding
# Target: Ras GTPase-activating protein-binding protein 1, full length (G3BP1, Homo sapiens, UniProt Q13283)
# Chain of UniProt Q13283 (whole entry, looked up): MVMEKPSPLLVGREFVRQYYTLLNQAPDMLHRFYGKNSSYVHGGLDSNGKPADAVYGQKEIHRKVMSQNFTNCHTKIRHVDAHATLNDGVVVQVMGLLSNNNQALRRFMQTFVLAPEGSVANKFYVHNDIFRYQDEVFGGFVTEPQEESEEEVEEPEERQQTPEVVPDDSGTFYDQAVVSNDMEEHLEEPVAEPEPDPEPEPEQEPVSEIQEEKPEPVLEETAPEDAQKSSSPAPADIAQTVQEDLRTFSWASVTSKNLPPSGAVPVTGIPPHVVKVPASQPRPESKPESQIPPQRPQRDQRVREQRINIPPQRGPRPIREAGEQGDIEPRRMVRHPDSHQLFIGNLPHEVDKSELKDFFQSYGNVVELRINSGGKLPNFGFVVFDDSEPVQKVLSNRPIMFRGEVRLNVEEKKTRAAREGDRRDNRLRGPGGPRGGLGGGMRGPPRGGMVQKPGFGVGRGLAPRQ
Strand,log2 enrichment
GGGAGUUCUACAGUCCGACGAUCCCUCAAGUCCUGUGCUACACAUCGUAUGUACCGAAUCGGGGUGGGGUGGGUGGAAAGUAUUAUGUUACGCCGUUCGGAUCUGCACUUCCAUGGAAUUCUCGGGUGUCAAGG,1.34
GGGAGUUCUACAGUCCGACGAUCCUGUGCUACACAUCGUAUGUACCGAAUCGGGGUUUUUUUGGGGUUUGGGGAAAAAAAGGGGAAAGUAUUAUGUUACGCCGUUCGGAUCUGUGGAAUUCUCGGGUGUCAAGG,-0.409
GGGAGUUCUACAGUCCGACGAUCCUCAAGUCCUGUGCUACACAUCGUAUGUACCGAAUCGGCCGGCCGGGCCGGGGAAAGUAUUAUGUUACGCCGUUCGGAUCUGCACUUCCAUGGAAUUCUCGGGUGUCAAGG,-0.39
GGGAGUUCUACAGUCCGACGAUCUCAAGUCCUGUGCUACACAUCGUAUGUACCGAAUCGGCCCGGGCCCGGCCCGGGAAAGUAUUAUGUUACGCCGUUCGGAUCUGCACUUCCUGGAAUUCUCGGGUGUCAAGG,-1.01
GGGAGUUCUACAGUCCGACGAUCUUUAGCCUGUGGAAUGAUAGCAGUAGGGUCCUGCAAUGGAGAUGUAACUUCCACUAUCCUUCAGACCAUCAUGGAGAAGUCAGAGACUGAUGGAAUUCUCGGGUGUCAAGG,-0.675
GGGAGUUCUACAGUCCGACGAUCGUCCUGUGCUACACAUCGUAUGUACCGAAUCAAACCCAAAUUUUUAAAUUUUUUUAAAAAAGUAUUAUGUUACGCCGUUCGGAUCUGCACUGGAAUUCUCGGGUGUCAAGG,-0.404
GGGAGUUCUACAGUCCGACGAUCUCAGCAACCACCUCAACUCAUUGACUCCGCCAACAUCCGUCAGGAGGAUGCCUUUGAUAACAACAGUGACAUUGCUGAAGAUGGUGGCCAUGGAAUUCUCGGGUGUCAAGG,-0.973
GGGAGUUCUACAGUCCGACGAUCUGGGAGGUGGAUUUCGUUUAUUUUUUUAGCUCAUUUCCAGGGGUGGGAAUUUUUUUUUAAUAUGUGUCAUGAAUAAAGUUGUUUUUGAAAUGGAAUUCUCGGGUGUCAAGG,-0.0526
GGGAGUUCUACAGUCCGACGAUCGCAGGAAGUAAAAACAAAUGGAAAUGCUUCGGAAAAUGGCAGGGGUGGGGGUUGCUAAGGAAAGGGUGGGAUGGGAGUGGGUAAAGAGUUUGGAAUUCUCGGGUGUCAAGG,0.972
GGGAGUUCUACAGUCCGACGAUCUGGGAGGUGGAUUUUGUUUAUUUUUUUAGCUCAUUUCCAGGGGUGGGAAUUUUUUUUUAAUAUGUGUCAUGAAUAAAGUAGUUUUUGAAAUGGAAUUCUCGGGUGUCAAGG,0.26

# Study 5 — technique: protein-binding microarray; form: double-stranded DNA, one strand shown; sample: in vitro; concentration: not given; direction: higher = stronger binding
# Target: Protein C-ets-1 (ETS1, Homo sapiens, UniProt P14921, residues 1-441, full length assumed)
# Chain of UniProt P14921 (whole entry, looked up): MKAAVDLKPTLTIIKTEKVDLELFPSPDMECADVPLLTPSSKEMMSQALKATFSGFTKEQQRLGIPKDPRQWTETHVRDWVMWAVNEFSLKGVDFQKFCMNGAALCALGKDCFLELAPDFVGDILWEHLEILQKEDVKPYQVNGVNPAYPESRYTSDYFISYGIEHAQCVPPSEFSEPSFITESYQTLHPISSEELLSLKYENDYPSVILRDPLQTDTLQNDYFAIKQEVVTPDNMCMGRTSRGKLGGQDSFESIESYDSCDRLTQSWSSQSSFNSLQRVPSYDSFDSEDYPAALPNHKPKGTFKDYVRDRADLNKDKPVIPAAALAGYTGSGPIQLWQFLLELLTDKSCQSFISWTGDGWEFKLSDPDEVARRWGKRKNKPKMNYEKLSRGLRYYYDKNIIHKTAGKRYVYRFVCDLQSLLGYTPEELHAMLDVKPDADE
# Setting: k-mer, scored over probes, only values ≥0.25
Strand,E-score
CCGGGGAG,0.276
AGGATGCA,0.394
CCCGGTCG,0.304
CCGCCCCG,0.325
ACCGGACG,0.477
GCGTCGGA,0.253
GGGCAGGA,0.406
AGCCCCGG,0.316
GGATGGGA,0.286
GGATATCC,0.407
CGGATGTC,0.478
AGGAAATA,0.46
TGCGGAAA,0.454
GACGGAAC,0.269
CCTTCCAC,0.259
CCCGCTTC,0.268
GGACATGA,0.253
TACCGGTA,0.353
CACATCCA,0.288
GTTTCCTA,0.338
CGGAACCG,0.398
CCTGTCCG,0.253
CCAGGAAA,0.432
GGACCGGA,0.474
AGCTGGAA,0.251

# Some of these lines once more (study 2):
Strand,E-score
GCCTACAA,0.0125
ACGTACGG,-0.203
AAGATGAC,0.132
CACCAGTA,0.0311
CCGTCACG,-0.262
AACCAGGA,-0.0899
CAGGTTCC,-0.343
AAACAGGC,-0.12
CAGCTTGG,-0.151
CGGCCGTC,-0.354
AAAACAGT,0.272
CCTCGGTA,-0.243
CCTGGGCG,-0.33
